Measurements collected from several papers.
A part holds a random share of what one study measured. Substitutions count along the parent as printed.

Set 1
Target: CCND1, cyclin fold, Cln2 fusion (human)
Method: yeast growth competition, sequencing
Matrix: yeast
Notes: strong parent motif
Baseline: not given
Direction: higher = stronger binding
Parent: INSM1 docking peptide (human); PKAIRKLHFEDEV
Change	normalised enrichment score
A3H	0.67
D11P	3.14
E12M	4.33
R5D	0.27
I4M	4.16
R5G	0.186

Set 2
Target: ABI1, truncated, D143A, DHFR fusion (Arabidopsis thaliana)
Method: DHFR PCA, deep sequencing
Matrix: yeast
Notes: methotrexate growth selection, single substitutions
Added: (+)-ABA 1.4 µM
Baseline: wild-type fitted maximum
Direction: higher = stronger binding
Parent: PYL1, truncated, DHFR fusion (Arabidopsis thaliana); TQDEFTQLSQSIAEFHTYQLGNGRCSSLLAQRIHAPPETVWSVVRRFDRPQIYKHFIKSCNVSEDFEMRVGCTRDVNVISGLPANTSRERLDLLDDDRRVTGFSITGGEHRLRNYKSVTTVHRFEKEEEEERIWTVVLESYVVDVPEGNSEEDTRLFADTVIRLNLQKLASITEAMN; partner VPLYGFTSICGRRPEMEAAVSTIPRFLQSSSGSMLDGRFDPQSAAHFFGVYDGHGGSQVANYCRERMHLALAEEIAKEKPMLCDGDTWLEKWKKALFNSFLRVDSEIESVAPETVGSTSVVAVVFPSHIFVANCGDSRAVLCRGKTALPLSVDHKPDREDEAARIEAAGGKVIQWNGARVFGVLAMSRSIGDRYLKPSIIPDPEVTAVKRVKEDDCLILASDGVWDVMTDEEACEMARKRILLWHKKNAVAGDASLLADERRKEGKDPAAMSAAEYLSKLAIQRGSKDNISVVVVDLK
Change	relative binding score
R32E	47.3%
E38V	13.4%
N61W	39.6%
V142G	-9.18%
E4P	39.8%

Set 3
Target: RING finger protein unkempt homolog, zinc fingers 1-6, GST-SBP tag (UNK, Homo sapiens, UniProt Q9C0B0, residues 30-357)
Chain of UniProt Q9C0B0 (30-357, looked up): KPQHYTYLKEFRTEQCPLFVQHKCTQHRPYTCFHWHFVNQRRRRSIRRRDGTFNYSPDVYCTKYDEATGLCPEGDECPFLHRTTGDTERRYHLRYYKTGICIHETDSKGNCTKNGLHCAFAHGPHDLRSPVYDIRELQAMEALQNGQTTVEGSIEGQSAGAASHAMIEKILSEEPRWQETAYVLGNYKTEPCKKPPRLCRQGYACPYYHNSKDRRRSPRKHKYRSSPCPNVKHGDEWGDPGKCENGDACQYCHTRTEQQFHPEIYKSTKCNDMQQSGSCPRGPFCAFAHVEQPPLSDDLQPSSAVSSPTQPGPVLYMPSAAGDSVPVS
Method: RNA Bind-n-Seq
Molecule type: RNA
Matrix: in vitro
Tested at: not given
Notes: RNA with constant flanks, human-mouse chimeric sites, ends assumed
Baseline: input RNA pool
Direction: higher = stronger binding
Oligonucleotide	bound/input enrichment [ratio]
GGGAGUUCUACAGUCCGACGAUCACUCUUGACUCUUUCCAUUCUCGUCCCUUCCCUCUUGAUAUUCAAGGCCAUGAAUCCCAAAAUAACAAUCUAUCUUACUAGCACCCAAACAGAGGUGGAAUAAAUCCACCCCAGUGUCUCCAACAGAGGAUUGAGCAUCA	0.851
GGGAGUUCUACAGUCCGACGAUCAGCACAACCCCAGCAAAGCUAAGAAAUCCUUGUACAAGUGAACAAAACUGCACCAGCCCAUUUAGCUACAAAAAUGUGCUUAGUCUUACUGACAGAGGAGAAGUAUUUAAUGAACUUGUUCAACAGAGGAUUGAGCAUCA	0.487
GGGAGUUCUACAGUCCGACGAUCUCAGGAACCCAGACAAAUAUGAAUGUAAAUGAAGUCAUUAGCAAUAGAGCAAUUGAAAUGUUAGGAGGUGAACUUGGCAGCAAGAAGCCUGUGCACCCCAAUGAUCAUGUUAACAAAAGCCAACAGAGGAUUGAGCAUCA	1.8
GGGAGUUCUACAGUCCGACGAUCAGUGUGCAGGAAUUCAUGACCUUUACAAGUCAACUGAUUGUGGAACGCUCAUCGAAAGGCAGCAGAGCUUCUGUCAAAGAACAAGAGUAUCUUUGCCAUGUCUACGUCCGGAAUGAUAGUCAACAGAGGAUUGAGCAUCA	0.13
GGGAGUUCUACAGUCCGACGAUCAAUUUCCGCAACUGUUUUGUAGCAAGACACAUCAGACUUACAGAGCACCUGGCCACAUUCUAGGUUUGUGUUAUUUCUCAGCUAUGGAUAUGAUCAAAUGAGAACACUGCUUAACUAAUGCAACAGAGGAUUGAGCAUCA	0.159

Single results of other studies
Molecule	target	assay	system	conditions	scale	endpoint	result
PhoQ, residues 284 288 289 292 302 303 NLMGRA	PhoP, residues 12 14 15 18 19 VQGLL (Escherichia coli, UniProt P23836)	Sort-seq, measured: YFP reporter	E. coli	PhoQ-PhoP variant library, added: 10 µM Mg2+	baseline: high Mg2+ state, higher = stronger signaling	fold induction	16.1

Excerpt of the above (set 1):
Change	normalised enrichment score
A3H	0.67
D11P	3.14
